Results gathered from unrelated publications.
Numbered parts are unrelated; each lists some results of a single study.
Chain of UniProt Q6DT37 (whole entry, looked up): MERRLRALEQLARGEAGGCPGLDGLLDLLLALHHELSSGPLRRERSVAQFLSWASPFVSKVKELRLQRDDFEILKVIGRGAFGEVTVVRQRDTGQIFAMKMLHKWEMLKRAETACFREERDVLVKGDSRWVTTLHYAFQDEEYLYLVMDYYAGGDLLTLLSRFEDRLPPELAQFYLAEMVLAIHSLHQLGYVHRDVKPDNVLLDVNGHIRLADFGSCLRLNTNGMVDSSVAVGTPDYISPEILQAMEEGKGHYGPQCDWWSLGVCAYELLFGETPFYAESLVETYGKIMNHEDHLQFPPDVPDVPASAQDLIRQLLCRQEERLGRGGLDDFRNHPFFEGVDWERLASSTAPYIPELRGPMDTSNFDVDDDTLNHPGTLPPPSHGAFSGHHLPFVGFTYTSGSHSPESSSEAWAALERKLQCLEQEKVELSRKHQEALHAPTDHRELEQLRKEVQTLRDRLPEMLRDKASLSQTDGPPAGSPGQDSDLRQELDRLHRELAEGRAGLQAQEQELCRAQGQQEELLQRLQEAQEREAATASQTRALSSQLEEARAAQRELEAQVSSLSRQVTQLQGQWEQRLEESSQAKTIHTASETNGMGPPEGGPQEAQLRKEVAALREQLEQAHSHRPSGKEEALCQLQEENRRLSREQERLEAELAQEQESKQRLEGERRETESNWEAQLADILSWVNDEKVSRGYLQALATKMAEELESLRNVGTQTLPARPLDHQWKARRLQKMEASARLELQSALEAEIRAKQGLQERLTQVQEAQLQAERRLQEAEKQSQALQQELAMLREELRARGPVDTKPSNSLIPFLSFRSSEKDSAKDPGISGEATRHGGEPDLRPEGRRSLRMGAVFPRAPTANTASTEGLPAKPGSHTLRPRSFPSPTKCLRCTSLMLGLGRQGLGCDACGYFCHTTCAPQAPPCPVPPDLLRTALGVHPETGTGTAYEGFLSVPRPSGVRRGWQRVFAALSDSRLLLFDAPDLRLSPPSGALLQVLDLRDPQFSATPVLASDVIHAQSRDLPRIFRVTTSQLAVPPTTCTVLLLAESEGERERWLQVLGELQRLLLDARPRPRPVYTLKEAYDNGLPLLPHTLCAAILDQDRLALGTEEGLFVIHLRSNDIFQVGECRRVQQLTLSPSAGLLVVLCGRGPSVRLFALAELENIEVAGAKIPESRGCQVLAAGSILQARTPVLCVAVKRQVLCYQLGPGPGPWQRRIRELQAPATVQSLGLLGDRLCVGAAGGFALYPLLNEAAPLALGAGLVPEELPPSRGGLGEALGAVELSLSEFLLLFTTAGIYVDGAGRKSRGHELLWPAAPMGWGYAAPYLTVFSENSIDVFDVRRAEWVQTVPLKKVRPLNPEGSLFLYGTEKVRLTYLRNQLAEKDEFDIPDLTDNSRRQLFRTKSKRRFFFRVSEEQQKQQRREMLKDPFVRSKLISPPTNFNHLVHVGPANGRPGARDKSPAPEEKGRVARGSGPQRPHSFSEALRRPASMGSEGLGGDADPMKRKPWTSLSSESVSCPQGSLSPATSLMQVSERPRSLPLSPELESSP
Chain of UniProt Q14680 (whole entry, looked up): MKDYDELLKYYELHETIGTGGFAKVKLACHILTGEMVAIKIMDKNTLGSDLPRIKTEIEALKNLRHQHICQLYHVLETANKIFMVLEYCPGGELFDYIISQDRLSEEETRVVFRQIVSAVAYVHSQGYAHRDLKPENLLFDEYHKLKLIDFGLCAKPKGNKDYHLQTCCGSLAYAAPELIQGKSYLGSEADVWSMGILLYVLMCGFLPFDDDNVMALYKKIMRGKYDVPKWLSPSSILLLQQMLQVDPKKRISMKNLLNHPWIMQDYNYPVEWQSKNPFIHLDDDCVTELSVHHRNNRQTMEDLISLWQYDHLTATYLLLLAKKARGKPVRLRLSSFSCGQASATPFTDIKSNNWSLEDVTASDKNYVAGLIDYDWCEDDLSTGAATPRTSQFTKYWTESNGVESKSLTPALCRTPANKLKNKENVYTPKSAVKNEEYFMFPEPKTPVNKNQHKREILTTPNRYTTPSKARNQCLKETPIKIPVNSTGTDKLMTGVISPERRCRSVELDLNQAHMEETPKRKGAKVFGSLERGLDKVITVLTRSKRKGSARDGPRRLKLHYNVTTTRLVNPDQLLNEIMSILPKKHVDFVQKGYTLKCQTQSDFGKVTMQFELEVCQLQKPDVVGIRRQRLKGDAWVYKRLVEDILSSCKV
Chain of UniProt P36507 (whole entry, looked up): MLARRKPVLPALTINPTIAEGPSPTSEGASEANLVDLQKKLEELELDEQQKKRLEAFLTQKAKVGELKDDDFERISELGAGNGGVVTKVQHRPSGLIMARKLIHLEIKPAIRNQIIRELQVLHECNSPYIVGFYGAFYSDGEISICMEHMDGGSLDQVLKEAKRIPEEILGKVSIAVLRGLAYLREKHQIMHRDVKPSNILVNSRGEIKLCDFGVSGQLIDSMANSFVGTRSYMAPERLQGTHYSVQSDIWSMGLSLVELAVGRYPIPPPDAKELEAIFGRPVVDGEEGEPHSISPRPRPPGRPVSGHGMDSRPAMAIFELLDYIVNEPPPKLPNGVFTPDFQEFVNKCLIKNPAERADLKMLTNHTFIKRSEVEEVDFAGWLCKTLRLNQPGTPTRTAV
Chain of UniProt Q9HBY8 (whole entry, looked up): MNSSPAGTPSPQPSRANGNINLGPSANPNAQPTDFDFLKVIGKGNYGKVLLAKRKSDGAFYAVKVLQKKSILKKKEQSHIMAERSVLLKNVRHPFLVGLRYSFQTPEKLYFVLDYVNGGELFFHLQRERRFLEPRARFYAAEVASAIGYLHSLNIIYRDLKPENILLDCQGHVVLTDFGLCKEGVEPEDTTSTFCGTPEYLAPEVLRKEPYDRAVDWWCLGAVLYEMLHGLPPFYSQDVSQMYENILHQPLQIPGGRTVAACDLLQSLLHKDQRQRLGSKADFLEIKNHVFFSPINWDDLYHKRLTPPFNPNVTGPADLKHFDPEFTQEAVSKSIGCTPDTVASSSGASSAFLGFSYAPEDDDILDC
Chain of UniProt P48730 (whole entry, looked up): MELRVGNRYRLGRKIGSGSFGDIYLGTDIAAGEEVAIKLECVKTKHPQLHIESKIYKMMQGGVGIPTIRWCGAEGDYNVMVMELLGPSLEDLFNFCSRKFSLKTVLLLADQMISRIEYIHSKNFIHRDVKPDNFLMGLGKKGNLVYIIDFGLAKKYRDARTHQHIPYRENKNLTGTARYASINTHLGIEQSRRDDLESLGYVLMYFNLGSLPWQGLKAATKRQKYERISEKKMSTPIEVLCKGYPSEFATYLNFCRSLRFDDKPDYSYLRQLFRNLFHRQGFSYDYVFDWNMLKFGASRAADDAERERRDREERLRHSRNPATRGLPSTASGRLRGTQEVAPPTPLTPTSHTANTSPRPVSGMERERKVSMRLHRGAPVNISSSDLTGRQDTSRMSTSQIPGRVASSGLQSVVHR
Chain of UniProt Q8IWQ3 (whole entry, looked up): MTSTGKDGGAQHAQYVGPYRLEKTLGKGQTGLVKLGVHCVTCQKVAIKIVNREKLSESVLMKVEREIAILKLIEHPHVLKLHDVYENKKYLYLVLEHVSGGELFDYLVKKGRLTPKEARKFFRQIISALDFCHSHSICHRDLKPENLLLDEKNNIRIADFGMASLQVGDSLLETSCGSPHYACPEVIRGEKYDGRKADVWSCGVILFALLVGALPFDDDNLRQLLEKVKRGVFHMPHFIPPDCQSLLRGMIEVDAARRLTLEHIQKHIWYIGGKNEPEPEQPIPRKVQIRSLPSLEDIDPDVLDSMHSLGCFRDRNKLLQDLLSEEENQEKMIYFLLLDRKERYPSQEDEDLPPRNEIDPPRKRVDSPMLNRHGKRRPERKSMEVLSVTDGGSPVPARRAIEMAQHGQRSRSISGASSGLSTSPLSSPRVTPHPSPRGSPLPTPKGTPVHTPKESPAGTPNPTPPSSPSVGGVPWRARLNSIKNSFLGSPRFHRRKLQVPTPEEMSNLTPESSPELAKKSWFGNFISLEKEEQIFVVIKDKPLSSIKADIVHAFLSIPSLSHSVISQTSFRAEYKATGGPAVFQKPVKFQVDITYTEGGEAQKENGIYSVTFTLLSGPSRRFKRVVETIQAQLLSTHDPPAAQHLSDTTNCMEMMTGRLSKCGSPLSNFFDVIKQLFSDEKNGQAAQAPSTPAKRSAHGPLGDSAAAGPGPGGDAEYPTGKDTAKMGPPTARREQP
Chain of UniProt P42685 (whole entry, looked up): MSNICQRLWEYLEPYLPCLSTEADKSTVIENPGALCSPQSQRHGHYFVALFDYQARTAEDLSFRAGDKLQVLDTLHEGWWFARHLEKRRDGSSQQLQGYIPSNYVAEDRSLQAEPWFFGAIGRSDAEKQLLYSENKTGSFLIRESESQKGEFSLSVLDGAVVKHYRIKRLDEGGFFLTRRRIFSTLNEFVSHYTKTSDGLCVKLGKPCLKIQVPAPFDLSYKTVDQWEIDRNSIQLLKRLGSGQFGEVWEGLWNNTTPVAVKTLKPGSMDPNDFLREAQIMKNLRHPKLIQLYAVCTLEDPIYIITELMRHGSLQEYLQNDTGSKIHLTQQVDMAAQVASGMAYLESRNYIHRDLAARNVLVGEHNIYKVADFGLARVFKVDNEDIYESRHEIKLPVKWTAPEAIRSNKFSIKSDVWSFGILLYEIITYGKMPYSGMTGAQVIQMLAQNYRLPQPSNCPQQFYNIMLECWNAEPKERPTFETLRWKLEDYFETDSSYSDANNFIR
Chain of UniProt Q52WX2 (whole entry, looked up): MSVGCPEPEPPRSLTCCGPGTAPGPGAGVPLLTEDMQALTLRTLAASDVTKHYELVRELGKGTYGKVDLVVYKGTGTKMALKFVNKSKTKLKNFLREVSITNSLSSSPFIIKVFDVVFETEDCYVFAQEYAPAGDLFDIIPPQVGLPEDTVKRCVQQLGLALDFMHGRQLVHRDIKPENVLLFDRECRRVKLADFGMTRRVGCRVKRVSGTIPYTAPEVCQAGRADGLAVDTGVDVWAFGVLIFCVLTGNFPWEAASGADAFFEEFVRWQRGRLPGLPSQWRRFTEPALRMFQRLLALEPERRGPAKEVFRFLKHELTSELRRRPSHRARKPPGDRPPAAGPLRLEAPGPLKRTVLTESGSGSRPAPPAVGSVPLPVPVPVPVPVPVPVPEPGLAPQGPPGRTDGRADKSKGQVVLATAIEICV

Block 1 — concentration: 0.1 µM
SMILES: CC(C)CC(=O)N1CCc2nc(-c3ccc(Br)cc3)nc(N(C)Cc3ccccc3)c2C1
target	read-out	technique	remaining binding
Serine/threonine-protein kinase 36 (STK36, Homo sapiens, UniProt Q9NRP7)	cell-free assay	competition with immobilised ligand	78%
Tyrosine-protein kinase ABL1, phosphorylated (ABL1, Homo sapiens, UniProt P00519, Q252H)	cell-free assay	competition with immobilised ligand	88%
Serine/threonine-protein kinase SBK1 (SBK1, Homo sapiens, UniProt Q52WX2)	cell-free assay	competition with immobilised ligand	100%
Serine/threonine-protein kinase MRCK gamma (CDC42BPG, Homo sapiens, UniProt Q6DT37)	–	competition binding	100%
Mitogen-activated protein kinase kinase kinase 9 (MAP3K9, Homo sapiens, UniProt P80192)	cell-free assay	competition with immobilised ligand	91%
Serine/threonine-protein kinase MARK1 (MARK1, Homo sapiens, UniProt Q9P0L2)	cell-free assay	competition with immobilised ligand	92%
Non-receptor tyrosine-protein kinase TYK2, JH1 (TYK2, Homo sapiens, UniProt P29597)	cell-free assay	competition with immobilised ligand	100%
Protein kinase C epsilon type (PRKCE, Homo sapiens, UniProt Q02156)	cell-free assay	competition with immobilised ligand	100%
Dual specificity mitogen-activated protein kinase kinase 2 (MAP2K2, Homo sapiens, UniProt P36507)	cell-free assay	competition with immobilised ligand	100%
Tyrosine-protein kinase FRK (FRK, Homo sapiens, UniProt P42685)	cell-free assay	competition with immobilised ligand	100%
Mitogen-activated protein kinase kinase kinase 10 (MAP3K10, Homo sapiens, UniProt Q02779)	cell-free assay	competition with immobilised ligand	96%

Block 2 — SMILES: COc1ccc(-c2cnc3c(-c4ccsc4)cnn3c2)cc1; read-out: enzyme activity; mode: inhibitor; concentration: 0.5 µM; reference: control
target	remaining activity [%]
Muscle, skeletal receptor tyrosine-protein kinase (MUSK, Homo sapiens, UniProt O15146)	74.9
SRSF protein kinase 1 (SRPK1, Homo sapiens, UniProt Q96SB4)	101
Activin receptor type-1-like (ACVRL1, Homo sapiens, UniProt P37023)	76.4
Casein kinase I isoform delta (CSNK1D, Homo sapiens, UniProt P48730)	83.6
Tyrosine-protein kinase Tec (TEC, Homo sapiens, UniProt P42680)	124
Maternal embryonic leucine zipper kinase (MELK, Homo sapiens, UniProt Q14680)	73.6
Mitogen-activated protein kinase kinase kinase 20 (MAP3K20, Homo sapiens, UniProt Q9NYL2)	84.1
Ribosomal protein S6 kinase beta-2 (RPS6KB2, Homo sapiens, UniProt Q9UBS0)	100
Ephrin type-A receptor 6 (EPHA6, Homo sapiens, UniProt Q9UF33)	85.1
Serine/threonine-protein kinase Sgk2 (SGK2, Homo sapiens, UniProt Q9HBY8)	96.7
Serine/threonine-protein kinase BRSK2 (BRSK2, Homo sapiens, UniProt Q8IWQ3)	94.1
Dual specificity protein kinase CLK1 (CLK1, Homo sapiens, UniProt P49759)	82.8
Receptor tyrosine-protein kinase erbB-2 (ERBB2, Homo sapiens, UniProt P04626)	102

Further values, each from its own experiment
Substance	tested on	technique	sample	concentration	endpoint	result
CCOC(=O)[C@@H]1CSCC(=O)N[C@H](CC)C(=O)N(C)[C@@H](C)C(=O)N[C@@H](CC(C)C)C(=O)N2CCC[C@@H]2C(=O)N(CC(C)C)CC(=O)N[C@H](CC(C)C)C(=O)N(C)[C@H](C)C(=O)N[C@@H](CC(C)C)C(=O)N1C	–	–	hydrocarbon/water	–	logD	0.661
medroxyprogesterone	Sarcocystis neurona	HTS	–	concentration not given	activity	inactive

For quick reference, copied from above (block 2):
target	remaining activity [%]
Ribosomal protein S6 kinase beta-2 (RPS6KB2, Homo sapiens, UniProt Q9UBS0)	100
Muscle, skeletal receptor tyrosine-protein kinase (MUSK, Homo sapiens, UniProt O15146)	74.9
